Results pooled from the literature.
Compare with care: the assays were run in different laboratories.
B1: ND4 1-486 (Yarrowia lipolytica, UniProt Q9B6D6); sequence looked up; chain MFLTSILLSSLYLFNRILAWQGNVKHFYLFASNLLLLFIVVLYINFNTFSNSFQFNFELFNSLNPFGLSNSDISNGLLFGIDGLSLTFILLTVLLIPLTLLGNWYNINFNSNLYYTLVLAIGLVILLNFWALDYISFYILFEATLPLLFILIHIYGSSDSERASFYVLMFTLSGSLFMLLSIVVISIVLNTTNFINHNLFVLSLDLQTIIWLGLFIAIMVKTPLFPIHVWLPVVHSESPLAGSMILAGLILKLALYAILRLLLPLLCEAQILYTPMIYIISLLTIILTSLATLRQIDLKVIIAYSSISHMGIAILGVCSNTSLGIYGSIVLGVAHGFVSPALFLIVGGILYDRYHIRIVNYYKGLTTYMPQLATYIIILSFANIGTPLTGNFTGEFLSLQGGFIRNPIIGGISCISVLLAAIYQLKLTNKLTGGISSIYMHRTNDVTIREKFIMNILIISTLIIGICPQIMYNLLYWTVNNYIYII
B2: CNOT2 350-540 (Homo sapiens, UniProt Q9NZN8); sequence looked up; chain MVTDQFGMIGLLTFIRAAETDPGMVHLALGSDLTTLGLNLNSPENLYPKFASPWASSPCRPQDIDFHVPSEYLTNIHIRDKLAAIKLGRYGEDLLFYLYYMNGGDVLQLLAAVELFNRDWRYHKEERVWITRAPGMEPTMKTNTYERGTYYFFDCLNWRKVAKEFHLEYDKLEERPHLPSTFNYNPAQQAF
B3: SF3B1 454-1304 K700E (Homo sapiens, UniProt O75533); chain KSVNDQPSGNLPFLKPDDIQYFDKLLVDVDESTLSPEEQKERKIMKLLLKIKNGTPPMRKAALRQITDKAREFGAGPLFNQILPLLMSPTLEDQERHLLVKVIDRILYKLDDLVRPYVHKILVVIEPLLIDEDYYARVEGREIISNLAKAAGLATMISTMRPDIDNMDEYVRNTTARAFAVVASALGIPSLLPFLKAVCKSKKSWQARHTGIKIVQQIAILMGCAILPHLRSLVEIIEHGLVDEQQEVRTISALAIAALAEAATPYGIESFDSVLKPLWKGIRQHRGKGLAAFLKAIGYLIPLMDAEYANYYTREVMLILIREFQSPDEEMKKIVLKVVKQCCGTDGVEANYIKTEILPPFFKHFWQHRMALDRRNYRQLVDTTVELANKVGAAEIISRIVDDLKDEAEQYRKMVMETIEKIMGNLGAADIDHKLEEQLIDGILYAFQEQTTEDSVMLNGFGTVVNALGKRVKPYLPQICGTVLWRLNNKSAKVRQQAADLISRTAVVMKTCQEEKLMGHLGVVLYEYLGEEYPEVLGSILGALKAIVNVIGMHKMTPPIKDLLPRLTPILKNRHEKVQENCIDLVGRIADRGAEYVSAREWMRICFELLELLKAHKKAIRRATVNTFGYIAKAIGPHDVLATLLNNLKVQERQNRVCTTVAIAIVAETCSPFTVLPALMNEYRVPELNVQNGVLKSLSFLFEYIGEMGKDYIYAVTPLLEDALMDRDLVHRQTASAVVQHMSLGVYGFGCEDSLNHLLNYVWPNVFETSPHVIQAVMGALEGLRVAIGPCRMLQYCLQGLFHPARKVRDVYWKIYNSIYIGSQDALIAHYPRIYNDDKNTYIRYELDYIL
B4: ATG9 1-100 (Saccharomyces cerevisiae, UniProt Q12142); sequence looked up; chain MERDEYQLPNSHGKNTFLSRIFGLQSDEVNPSLNSQEMSNFPLPDIERGSSLLHSTNDSREDVDENDLRVPESDQGTSTEEEDEVDEEQVQAYAPQISDG
B5: RNF216 260-509 (Homo sapiens, UniProt Q9NWF9-2); sequence looked up; chain MQESQEPNLENIWGQEAAEVDQELVELLVKETEARFPDVANGFIEEIIHFKNYYDLNVLCNFLLENPDYPKREDRIIINPSSSLLASQDETKLPKIDFFDYSKLTPLDQRCFIQAADLLMADFKVLSSQDIKWALHELKGHYAITRKALSDAIKKWQELSPETSGKRKKRKQMNQYSYIDFKFEQGDIKIEKRMFFLENKRRHCRSYDRRALLPAVQQEQEFYEQKIKEMAEHEDFLLALQMNEEQYQKD
B6: SETX 1-1721 (Homo sapiens, UniProt Q7Z333); sequence looked up; chain MSTCCWCTPGGASTIDFLKRYASNTPSGEFQTADEDLCYCLECVAEYHKARDELPFLHEVLWELETLRLINHFEKSMKAEIGDDDELYIVDNNGEMPLFDITGQDFENKLRVPLLEILKYPYLLLHERVNELCVEALCRMEQANCSFQVFDKHPGIYLFLVHPNEMVRRWAILTARNLGKVDRDDYYDLQEVLLCLFKVIELGLLESPDIYTSSVLEKGKLILLPSHMYDTTNYKSYWLGICMLLTILEEQAMDSLLLGSDKQNDFMQSILHTMEREADDDSVDPFWPALHCFMVILDRLGSKVWGQLMDPIVAFQTIINNASYNREIRHIRNSSVRTKLEPESYLDDMVTCSQIVYNYNPEKTKKDSGWRTAICPDYCPNMYEEMETLASVLQSDIGQDMRVHNSTFLWFIPFVQSLMDLKDLGVAYIAQVVNHLYSEVKEVLNQTDAVCDKVTEFFLLILVSVIELHRNKKCLHLLWVSSQQWVEAVVKCAKLPTTAFTRSSEKSSGNCSKGTAMISSLSLHSMPSNSVQLAYVQLIRSLLKEGYQLGQQSLCKRFWDKLNLFLRGNLSLGWQLTSQETHELQSCLKQIIRNIKFKAPPCNTFVDLTSACKISPASYNKEESEQMGKTSRKDMHCLEASSPTFSKEPMKVQDSVLIKADNTIEGDNNEQNYIKDVKLEDHLLAGSCLKQSSKNIFTERAEDQIKISTRKQKSVKEISSYTPKDCTSRNGPERGCDRGIIVSTRLLTDSSTDALEKVSTSNEDFSLKDDALAKTSKRKTKVQKDEICAKLSHVIKKQHRKSTLVDNTINLDENLTVSNIESFYSRKDTGVQKGDGFIHNLSLDPSGVLDDKNGEQKSQNNVLPKEKQLKNEELVIFSFHENNCKIQEFHVDGKELIPFTEMTNASEKKSSPFKDLMTVPESRDEEMSNSTSVIYSNLTREQAPDISPKSDTLTDSQIDRDLHKLSLLAQASVITFPSDSPQNSSQLQRKVKEDKRCFTANQNNVGDTSRGQVIIISDSDDDDDERILSLEKLTKQDKICLEREHPEQHVSTVNSKEEKNPVKEEKTETLFQFEESDSQCFEFESSSEVFSVWQDHPDDNNSVQDGEKKCLAPIANTTNGQGCTDYVSEVVKKGAEGIEEHTRPRSISVEEFCEIEVKKPKRKRSEKPMAEDPVRPSSSVRNEGQSDTNKRDLVGNDFKSIDRRTSTPNSRIQRATTVSQKKSSKLCTCTEPIRKVPVSKTPKKTHSDAKKGQNRSSNYLSCRTTPAIVPPKKFRQCPEPTSTAEKLGLKKGPRKAYELSQRSLDYVAQLRDHGKTVGVVDTRKKTKLISPQNLSVRNNKKLLTSQELQMQRQIRPKSQKNRRRLSDCESTDVKRAGSHTAQNSDIFVPESDRSDYNCTGGTEVLANSNRKQLIKCMPSEPETIKAKHGSPATDDACPLNQCDSVVLNGTVPTNEVIVSTSEDPLGGGDPTARHIEMAALKEGEPDSSSDAEEDNLFLTQNDPEDMDLCSQMENDNYKLIELIHGKDTVEVEEDSVSRPQLESLSGTKCKYKDCLETTKNQGEYCPKHSEVKAADEDVFRKPGLPPPASKPLRPTTKIFSSKSTSRIAGLSKSLETSSALSPSLKNKSKGIQSILKVPQPVPLIAQKPVGEMKNSCNVLHPQSPNNSNRQGCKVPFGESKYFPSSSPVNILLSSQSVSDTFVKEVLKWKYEMFLNFGQCGP
B7: ELM1 S519A (Saccharomyces cerevisiae, UniProt P32801); sequence looked up; chain MSPRQLIPTLIPEWAPLSQQSCIREDELDSPPITPTSQTSSFGSSFSQQKPTYSTIIGENIHTILDEIRPYVKKITVSDQDKKTINQYTLGVSAGSGQFGYVRKAYSSTLGKVVAVKIIPKKPWNAQQYSVNQVMRQIQLWKSKGKITTNMSGNEAMRLMNIEKCRWEIFAASRLRNNVHIVRLIECLDSPFSESIWIVTNWCSLGELQWKRDDDEDILPQWKKIVISNCSVSTFAKKILEDMTKGLEYLHSQGCIHRDIKPSNILLDEEEKVAKLSDFGSCIFTPQSLPFSDANFEDCFQRELNKIVGTPAFIAPELCHLGNSKRDFVTDGFKLDIWSLGVTLYCLLYNELPFFGENEFETYHKIIEVSLSSKINGNTLNDLVIKRLLEKDVTLRISIQDLVKVLSRDQPIDSRNHSQISSSSVNPVRNEGPVRRFFGRLLTKKGKKKTSGKGKDKVLVSATSKVTPSIHIDEEPDKECFSTTVLRSSPDSSDYCSSLGEEAIQVTDFLDTFCRSNEALPNLTVNNDKQNSDMKTDRSESSSHSSLKIPTPIKAMIRLKSSPKENGNRTHINCSQDKPSSPLMDRTVGKRTVNNSGARKLAHSSNILNFKAYINSEDSDIRETVEDVKTYLNFADNGQI
B8: tnsD 1-318 K30A/R40D (Escherichia coli, UniProt P13991); sequence looked up; chain MRNFPVPYSNELIYSTIARAGVYQGIVSPAQLLDEVYGNDKVVATLGLPSHLGVIARHLHQTGRYAVQQLIYEHTLFPLYAPFVGKERRDEAIRLMEYQAQGAVHLMLGVAASRVKSDNRFRYCPDCVALQLNRYGEAFWQRDWYLPALPYCPKHGALVFFDRAVDDHRHQFWALGHTELLSDYPKDSLSQLTALAAYIAPLLDAPRAQELSPSLEQWTLFYQRLAQDLGLTKSKHIRHDLVAERVRQTFSDEALEKLDLKLAENKDTCWLKSIFRKHRKAFSYLQHSIVWQALLPKLTVIEALQQASALTEHSITTR
B9: C9orf78 (Homo sapiens, UniProt Q9NZ63); sequence looked up; chain MPVVRKIFRRRRGDSESEEDEQDSEEVRLKLEETREVQNLRKRPNGVSAVALLVGEKVQEETTLVDDPFQMKTGGMVDMKKLKERGKDKISEEEDLHLGTSFSAETNRRDEDADMMKYIETELKKRKGIVEHEEQKVKPKNAEDCLYELPENIRVSSAKKTEEMLSNQMLSGIPEVDLGIDAKIKNIISTEDAKARLLAEQQNKKKDSETSFVPTNMAVNYVQHNRFYHEELNAPIRRNKEEPKARPLRVGDTEKPEPERSPPNRKRPANEKATDDYHYEKFKKMNRRY
B10: PARD6B 254-372 (Homo sapiens, UniProt Q9BYG5); chain NVVRNSRTSGSSGQSTDNSLLGYPQQIEPSFEPEDEDSEEDDIIIEDNGVPQQIPKAVPNTESLESLTQIELSFESGQNGFIPSNEVSLAAIASSSNTEFETHAPDQKLLEEDGTIITL
B11: Igf2 E-peptide 92-180 S95C (Mus musculus, UniProt P09535); sequence looked up; chain RDVCTSQAVLPDDFPRYPVGKFFQYDTWRQSAGRLRRGLPALLRARRGRMLAKELKEFREAKRHRPLIVLPPKDPAHGGASSEMSSNHQ
B12: GABARAP (Homo sapiens, UniProt O95166); chain MKFVYKEEHPFEKRRSEGEKIRKKYPDRVPVIVEKAPKARIGDLDKKKYLVPSDLTVGQFYFLIRKRIHLRAEDALFFFVNNVIPPTSATMGQLYQEHHEEDFFLYIAYSDESVYGL
Chain of UniProt Q14671 (whole entry, looked up): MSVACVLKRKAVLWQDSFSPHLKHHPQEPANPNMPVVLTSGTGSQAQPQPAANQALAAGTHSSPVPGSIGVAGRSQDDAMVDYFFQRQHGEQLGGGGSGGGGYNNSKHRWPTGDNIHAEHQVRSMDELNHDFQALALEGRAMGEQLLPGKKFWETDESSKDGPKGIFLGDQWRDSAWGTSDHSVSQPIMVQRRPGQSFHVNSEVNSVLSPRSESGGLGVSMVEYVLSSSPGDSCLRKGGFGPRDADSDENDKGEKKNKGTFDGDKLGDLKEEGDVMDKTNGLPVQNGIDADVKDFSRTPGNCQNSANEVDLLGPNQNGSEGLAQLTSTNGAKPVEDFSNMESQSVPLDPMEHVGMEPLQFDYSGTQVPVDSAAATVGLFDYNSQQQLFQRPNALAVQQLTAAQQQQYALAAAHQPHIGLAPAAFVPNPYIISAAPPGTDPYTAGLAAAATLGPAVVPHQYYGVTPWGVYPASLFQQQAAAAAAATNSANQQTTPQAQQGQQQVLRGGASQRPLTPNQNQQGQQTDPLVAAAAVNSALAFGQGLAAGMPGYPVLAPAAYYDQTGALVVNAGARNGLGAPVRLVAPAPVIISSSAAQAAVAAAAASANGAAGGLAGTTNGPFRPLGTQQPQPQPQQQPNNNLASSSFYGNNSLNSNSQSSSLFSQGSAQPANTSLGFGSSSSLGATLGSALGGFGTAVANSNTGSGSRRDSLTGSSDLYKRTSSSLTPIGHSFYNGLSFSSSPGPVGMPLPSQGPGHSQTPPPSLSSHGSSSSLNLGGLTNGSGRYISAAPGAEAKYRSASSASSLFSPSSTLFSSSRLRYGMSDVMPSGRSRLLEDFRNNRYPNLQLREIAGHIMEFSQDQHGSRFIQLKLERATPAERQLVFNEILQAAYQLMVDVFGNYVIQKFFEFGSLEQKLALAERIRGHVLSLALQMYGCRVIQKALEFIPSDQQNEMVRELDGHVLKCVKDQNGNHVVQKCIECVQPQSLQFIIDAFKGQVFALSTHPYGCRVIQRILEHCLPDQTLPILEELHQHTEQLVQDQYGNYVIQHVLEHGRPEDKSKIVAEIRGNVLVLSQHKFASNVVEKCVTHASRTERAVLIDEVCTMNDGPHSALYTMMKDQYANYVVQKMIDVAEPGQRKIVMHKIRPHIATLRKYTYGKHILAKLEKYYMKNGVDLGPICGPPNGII
Chain of UniProt Q9BWJ5 (whole entry, looked up): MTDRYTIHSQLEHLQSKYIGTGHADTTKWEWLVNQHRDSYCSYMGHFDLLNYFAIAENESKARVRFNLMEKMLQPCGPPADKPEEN
Chain of UniProt Q7Z4Q2 (whole entry, looked up): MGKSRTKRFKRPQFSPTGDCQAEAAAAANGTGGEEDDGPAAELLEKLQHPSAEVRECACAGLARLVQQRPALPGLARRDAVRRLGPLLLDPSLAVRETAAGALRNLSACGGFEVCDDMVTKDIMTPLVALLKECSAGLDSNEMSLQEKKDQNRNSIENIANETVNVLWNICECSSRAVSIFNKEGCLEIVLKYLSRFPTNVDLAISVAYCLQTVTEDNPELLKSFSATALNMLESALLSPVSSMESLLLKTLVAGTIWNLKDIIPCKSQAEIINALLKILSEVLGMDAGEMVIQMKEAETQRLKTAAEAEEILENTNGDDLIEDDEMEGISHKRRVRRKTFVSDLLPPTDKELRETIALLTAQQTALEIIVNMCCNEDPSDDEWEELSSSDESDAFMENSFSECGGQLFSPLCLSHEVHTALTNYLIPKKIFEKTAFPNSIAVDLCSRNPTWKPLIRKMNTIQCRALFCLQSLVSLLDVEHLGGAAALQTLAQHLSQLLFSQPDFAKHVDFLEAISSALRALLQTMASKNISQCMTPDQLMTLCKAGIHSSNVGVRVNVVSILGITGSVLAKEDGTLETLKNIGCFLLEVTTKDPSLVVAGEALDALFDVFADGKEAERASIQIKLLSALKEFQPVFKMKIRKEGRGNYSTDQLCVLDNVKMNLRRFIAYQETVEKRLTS
Chain of UniProt Q9B6D3 (whole entry, looked up): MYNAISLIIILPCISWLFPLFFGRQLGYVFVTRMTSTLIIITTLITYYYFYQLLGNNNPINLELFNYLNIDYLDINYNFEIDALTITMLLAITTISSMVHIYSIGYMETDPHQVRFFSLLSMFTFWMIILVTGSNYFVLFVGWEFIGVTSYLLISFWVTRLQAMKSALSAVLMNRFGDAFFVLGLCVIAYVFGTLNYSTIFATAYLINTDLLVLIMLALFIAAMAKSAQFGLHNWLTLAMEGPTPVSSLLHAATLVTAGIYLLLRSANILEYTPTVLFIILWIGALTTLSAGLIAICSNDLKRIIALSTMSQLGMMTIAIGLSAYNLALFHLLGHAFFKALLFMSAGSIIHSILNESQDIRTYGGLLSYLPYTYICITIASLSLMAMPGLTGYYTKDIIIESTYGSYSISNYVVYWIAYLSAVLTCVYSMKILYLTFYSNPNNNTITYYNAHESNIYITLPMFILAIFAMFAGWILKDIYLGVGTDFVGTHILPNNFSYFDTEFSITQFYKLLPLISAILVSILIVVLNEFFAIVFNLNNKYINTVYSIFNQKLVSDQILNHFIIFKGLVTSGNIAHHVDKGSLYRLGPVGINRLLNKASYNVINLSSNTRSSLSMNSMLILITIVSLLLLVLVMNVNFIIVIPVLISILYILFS
Chain of UniProt P84091 (whole entry, looked up): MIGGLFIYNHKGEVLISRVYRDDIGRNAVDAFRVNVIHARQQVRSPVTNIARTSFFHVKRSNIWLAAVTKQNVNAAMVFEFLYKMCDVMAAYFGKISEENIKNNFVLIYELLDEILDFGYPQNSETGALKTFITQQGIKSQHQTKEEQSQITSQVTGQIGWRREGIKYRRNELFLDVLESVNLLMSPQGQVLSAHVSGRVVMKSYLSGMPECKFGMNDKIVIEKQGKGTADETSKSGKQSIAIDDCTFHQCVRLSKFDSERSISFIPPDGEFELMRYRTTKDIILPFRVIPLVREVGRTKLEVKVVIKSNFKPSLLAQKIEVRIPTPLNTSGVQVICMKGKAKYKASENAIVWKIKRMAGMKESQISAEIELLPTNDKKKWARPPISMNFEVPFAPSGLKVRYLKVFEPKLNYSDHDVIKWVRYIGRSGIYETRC
Chain of UniProt Q12263 (whole entry, looked up): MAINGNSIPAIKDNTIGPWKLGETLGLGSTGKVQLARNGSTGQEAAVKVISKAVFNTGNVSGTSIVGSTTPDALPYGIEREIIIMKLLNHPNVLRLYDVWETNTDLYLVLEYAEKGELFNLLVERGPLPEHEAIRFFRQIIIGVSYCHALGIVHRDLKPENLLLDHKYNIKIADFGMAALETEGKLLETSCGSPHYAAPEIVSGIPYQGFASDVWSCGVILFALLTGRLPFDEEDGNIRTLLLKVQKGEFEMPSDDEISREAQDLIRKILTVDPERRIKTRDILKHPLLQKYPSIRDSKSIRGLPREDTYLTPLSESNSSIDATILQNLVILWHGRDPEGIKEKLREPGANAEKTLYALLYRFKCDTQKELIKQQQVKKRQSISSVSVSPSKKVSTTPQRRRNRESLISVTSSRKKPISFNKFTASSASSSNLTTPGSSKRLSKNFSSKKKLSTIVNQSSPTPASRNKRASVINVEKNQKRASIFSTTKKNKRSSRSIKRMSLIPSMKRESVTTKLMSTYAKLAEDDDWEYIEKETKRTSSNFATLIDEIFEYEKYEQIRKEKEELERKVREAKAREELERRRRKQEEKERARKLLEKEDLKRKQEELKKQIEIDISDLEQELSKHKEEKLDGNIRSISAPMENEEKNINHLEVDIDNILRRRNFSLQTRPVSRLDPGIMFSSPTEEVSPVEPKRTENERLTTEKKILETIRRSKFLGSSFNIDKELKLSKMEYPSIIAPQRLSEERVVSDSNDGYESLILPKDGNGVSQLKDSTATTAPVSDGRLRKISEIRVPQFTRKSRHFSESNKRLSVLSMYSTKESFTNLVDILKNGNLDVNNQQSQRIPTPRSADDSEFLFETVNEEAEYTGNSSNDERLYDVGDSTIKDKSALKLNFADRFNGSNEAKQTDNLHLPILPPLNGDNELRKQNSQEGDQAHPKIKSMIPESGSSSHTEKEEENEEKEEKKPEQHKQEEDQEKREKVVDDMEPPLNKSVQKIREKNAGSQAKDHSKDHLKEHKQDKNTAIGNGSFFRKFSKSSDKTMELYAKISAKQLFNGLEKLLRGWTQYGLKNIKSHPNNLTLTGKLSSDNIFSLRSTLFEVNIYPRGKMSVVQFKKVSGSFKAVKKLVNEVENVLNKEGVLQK
Chain of UniProt O95931 (whole entry, unmodified, looked up): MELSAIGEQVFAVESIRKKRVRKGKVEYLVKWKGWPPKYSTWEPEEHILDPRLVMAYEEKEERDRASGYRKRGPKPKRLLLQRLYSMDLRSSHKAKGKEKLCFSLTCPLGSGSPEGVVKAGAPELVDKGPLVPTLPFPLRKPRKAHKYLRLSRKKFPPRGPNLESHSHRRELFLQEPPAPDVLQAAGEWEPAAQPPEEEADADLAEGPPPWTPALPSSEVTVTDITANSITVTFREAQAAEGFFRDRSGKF
Chain of UniProt P05846 (whole entry, looked up): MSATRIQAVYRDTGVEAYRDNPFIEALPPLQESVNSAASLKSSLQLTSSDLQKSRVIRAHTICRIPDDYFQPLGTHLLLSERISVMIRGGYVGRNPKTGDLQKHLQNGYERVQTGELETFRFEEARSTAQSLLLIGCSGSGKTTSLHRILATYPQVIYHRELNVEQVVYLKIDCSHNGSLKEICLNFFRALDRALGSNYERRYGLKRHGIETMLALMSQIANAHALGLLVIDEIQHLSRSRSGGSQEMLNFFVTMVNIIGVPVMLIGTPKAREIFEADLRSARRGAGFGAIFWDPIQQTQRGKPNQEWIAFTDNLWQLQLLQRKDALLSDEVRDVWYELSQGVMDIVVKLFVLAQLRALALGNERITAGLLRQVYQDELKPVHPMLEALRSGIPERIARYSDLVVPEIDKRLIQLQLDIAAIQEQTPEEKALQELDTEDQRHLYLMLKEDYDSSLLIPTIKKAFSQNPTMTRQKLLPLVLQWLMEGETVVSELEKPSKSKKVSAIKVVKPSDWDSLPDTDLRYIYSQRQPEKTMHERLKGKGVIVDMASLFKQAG

B1 (ND4 1-486) — binding (ND5 1-655 (Yarrowia lipolytica, UniProt Q9B6D3); cryo-EM): binds
B2 (CNOT2 350-540) — binding (PUM1 589-1186 (Homo sapiens, UniProt Q14671); cross-linking): binds
B3 (SF3B1 454-1304 K700E) — binding (SF3B5 (Homo sapiens, UniProt Q9BWJ5); cryo-EM): binds
GVGGSWGVFSSGESPAIVPDK (TET3 peptide 1451-1471 (Homo sapiens, UniProt O43151); sequence looked up) — binding (KMT2D 1503-1562 (Homo sapiens, UniProt O14686); NMR titration; peptide): binds
KESALRKQDLWLLFDPLLR (TACC3 to 568 550-568 S558D/Y560W/K562L (Homo sapiens, UniProt Q9Y6A5); sequence looked up) — binding (CLTC 358-574 (Homo sapiens, UniProt Q00610); peptide array; peptide): binds
ARTKQTARKSTGGKA (H3 peptide residues 1-x; K9me3, N-terminal fluorescein) — binding (CBX7 8-62 D50C/R52D (Homo sapiens, UniProt O95931); FP; peptide): binds
B4 (ATG9 1-100) — binding (ATG23 Y16E (UniProt Q06671); pull-down; 5 µM, 15 min, pH 8, 4 °C, NaCl 150 mM): binds
B5 (RNF216 260-509) — binding (MAPT (Homo sapiens, UniProt P10636-6); pull-down): binds
B6 (SETX 1-1721) — binding (BRCA1/BARD1 (Homo sapiens); pull-down): binds
B7 (ELM1 S519A) — binding (GIN4 (Saccharomyces cerevisiae, UniProt Q12263); pull-down): binds
B8 (tnsD 1-318 K30A/R40D) — binding (tnsC 1-503 (Escherichia coli, UniProt P05846); dynamic light scattering; together with: ATP): binds
B9 (C9orf78) — binding (FAM50A (Homo sapiens, UniProt Q14320); pull-down): binds
B10 (PARD6B 254-372) — binding (LLGL2 13-978, dephosphorylated (Homo sapiens, UniProt Q6P1M3); pull-down): binds
B11 (Igf2 E-peptide 92-180 S95C) — binding (HSPA5 D27C, FITC label (UniProt P20029); fluorescence polarisation; together with: ATP): binds
ASEFFVDGLDSDERTLEHFKRWLQPDKVAI (CCDC32 121-150 (Mus musculus, UniProt Q8BS39)) — binding (Ap2m1 122-435 (Mus musculus, UniProt P84091); pull-down): binds
B4 (ATG9 1-100) — binding (ATG23 A34E (Saccharomyces cerevisiae, UniProt Q06671); pull-down; 15 minutes, 4 °C): binds
B12 (GABARAP) — binding (HEATR3 (Homo sapiens, UniProt Q7Z4Q2); pull-down): binds
